# Experimental data gathered from unrelated publications.
# Lines come from different studies, so protocols differ.
SMILES,organism,test,system,setting,MIC
C=CCO/N=C(\C(=O)N[C@@H]1C(=O)N(OS(=O)(=O)O)C1(C)C)c1nsc(N)n1,Proteus vulgaris,agar dilution,"ATCC 29905, susceptible",,≤ 0.03 µg/mL
CC[C@H](C)[C@@H]1NC(=O)[C@@H]([C@@H](C)O)NC(=O)CNC(=O)[C@H](CC(=O)O)NC(=O)CNC(=O)[C@H](CC(=O)O)NC(=O)CNC(=O)[C@H]2CCCCN2C(=O)[C@@H](NC(=O)[C@H](CC(=O)O)NC(=O)/C=C/CCCCCCCCCC(C)C)CNC(=O)[C@@H]2CCCN2C1=O,Staphylococcus aureus,broth microdilution,"MRSA USA300, Mueller-Hinton broth, Mg2+ 10 mg/L","16 h, 37 °C, together with: Ca2+ 0 mM",> 128 µg/mL
CC1(C)[C@H](NC(=O)/C(=N\OCC(=O)N2CCC(C(=O)O)CC2)c2csc(N)n2)C(=O)N1OS(=O)(=O)O,Shigella flexneri,agar dilution,"ATCC 12022, susceptible",,2 µg/mL
Cc1c(CN(C)C(=O)/C=C/c2cnc3c(c2)CC(N)C(=O)N3)oc2ccccc12 (stereo not shown),Acinetobacter baumannii,broth microdilution,AR-0273,,32 µg/mL
O=CCNCCOn1c(=O)n(OCCNCCO)c(=O)n(OCCNCCOn2c(=O)n(OCCNCCO)c(=O)n(OCCNCCO)c2=O)c1=O,Bacillus cereus,"microbial growth, broth dilution",,,1 µg/mL
COc1ccc(NC(=O)COc2cccc(OCC(C)C)c2)cc1,Nakaseomyces glabratus,"microbial growth, broth dilution",MY1381,,4 µg/mL
C[C@@H]1C(=O)O[C@@H](C)/C=C/C=C\[C@@H](C)[C@@H]2C=C[C@@H]3C[C@@]4(C)O[C@H]4[C@@H](C)[C@H]3[C@@H]2C(=O)C(Cl)(Cl)C1=O,Staphylococcus aureus,,MRSA clinical isolate,resistant: OXA,0.1 µg/mL
CC1(C)[C@H](NC(=O)/C(=N\OCc2c(Cl)cccc2Cl)c2csc(N)n2)C(=O)N1OS(=O)(=O)O,Proteus vulgaris,agar dilution,"ATCC 29905, susceptible",,0.06 µg/mL
CN(Cc1ccc(C2(C(F)(F)F)CCC2)cc1)Cc1cccc2ccccc12,Trichophyton rubrum,"microbial growth, broth dilution",ATCC28188,6 days,1000 µg/mL
CC1C=CC=CC(C)C2C=CC3CC(C)(O)C(Cl)C(C)C3C2C(=O)C(Cl)(Cl)C(=O)C(C)C(=O)O1 (stereo not shown),Staphylococcus aureus,,MRSA clinical isolate,"resistant, ERY, CLI, TET, OXA, SXT",0.1 µg/mL
COC(=O)CNC(=O)c1ccc(NC(=O)c2[nH]c(C)c(Cl)c2Cl)c(N2CCN(C(=O)OC(C)(C)C)CC2)c1,Klebsiella aerogenes,"microbial growth, broth dilution",ATCC13408,,> 32 µg/mL
CC1(C)C(NC(=O)C(=NOC2(C(=O)O)CCC2)c2csc(N)n2)C(=O)N1OS(=O)(=O)O (stereo not shown),Proteus vulgaris,agar dilution,"ATCC 29905, susceptible",,≤ 0.03 µg/mL
CCNC(=S)NN=Cc1c2ccccc2cc2ccccc12.Cc1ccc(C(C)C)cc1.[Cl-].[Cl-].[Ru+2],Bacillus cereus,,,"24 h, 37.0 °C",5 µM

# Some of these lines once more:
SMILES,organism,test,system,setting,MIC
CC1C=CC=CC(C)C2C=CC3CC(C)(O)C(Cl)C(C)C3C2C(=O)C(Cl)(Cl)C(=O)C(C)C(=O)O1 (stereo not shown),Staphylococcus aureus,,MRSA clinical isolate,"resistant, ERY, CLI, TET, OXA, SXT",0.1 µg/mL
